Results gathered from unrelated publications.
Numbered parts are unrelated; each lists some results of a single study.
UniProt Q9BUB5, sequence (whole entry, looked up): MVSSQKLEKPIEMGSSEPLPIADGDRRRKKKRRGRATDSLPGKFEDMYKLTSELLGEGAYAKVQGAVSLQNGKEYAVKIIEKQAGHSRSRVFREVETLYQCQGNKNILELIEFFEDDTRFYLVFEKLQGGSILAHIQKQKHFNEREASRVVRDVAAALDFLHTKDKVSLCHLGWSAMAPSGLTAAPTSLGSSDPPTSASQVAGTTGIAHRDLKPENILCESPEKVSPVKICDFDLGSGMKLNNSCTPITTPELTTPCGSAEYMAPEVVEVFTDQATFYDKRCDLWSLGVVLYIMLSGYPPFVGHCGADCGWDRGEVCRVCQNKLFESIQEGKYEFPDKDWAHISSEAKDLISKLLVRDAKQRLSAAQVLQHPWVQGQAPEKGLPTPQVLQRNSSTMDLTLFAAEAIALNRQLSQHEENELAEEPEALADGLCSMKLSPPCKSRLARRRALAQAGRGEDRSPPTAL

Block 1 — technique: RNA Bind-n-Seq; molecule type: RNA; matrix: in vitro; tested at: 20 nM; notes: 6-mer, flanks averaged, single round; added: 150 mM KCl; relative to: input library; reading: higher = stronger binding
Target: TAR DNA-binding protein 43, full length, His tag (TARDBP, Homo sapiens, UniProt Q13148, residues 1-414)
Oligonucleotide | 6-mer enrichment (R)
ACGCGA | 0.832
UGUUAU | 0.704
GAGGCC | 1.48
UGCUUC | 0.591
CACUCC | 0.598
UUUGAA | 0.72
UGCUAA | 0.648
ACUAGC | 0.668

Block 2 — technique: protein binding microarray; molecule type: double-stranded DNA, one strand shown; matrix: in vitro; tested at: not given; relative to: not given; reading: higher = stronger binding
Target: Histone acetyltransferase KAT6A, both winged helices, GST fusion (KAT6A, Homo sapiens, UniProt Q92794, residues 1-181)
Notes: 8-mer, flanks averaged, mean of 2 arrays, mostly near background
Construct (chain): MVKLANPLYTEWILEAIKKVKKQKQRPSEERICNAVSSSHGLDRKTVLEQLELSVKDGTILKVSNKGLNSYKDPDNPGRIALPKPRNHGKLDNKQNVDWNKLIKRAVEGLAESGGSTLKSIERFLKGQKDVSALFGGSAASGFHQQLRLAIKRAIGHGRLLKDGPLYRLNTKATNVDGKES
Oligonucleotide | E-score
CATGATTC | -0.0475
CAATAGGG | -0.236
AGGCATCA | -0.187
ATGTGATC | 0.0582
GAACAACC | 0.0408
CGCAAATC | 0.184
TAATATCA | -0.12
TGATCACA | -0.041

Block 3 — technique: RNAcompete; molecule type: RNA; matrix: in vitro; tested at: 20 nM; notes: 7-mer, probes averaged, single round; relative to: mean of 7-mers; reading: higher = stronger binding
Target: PABPC1L2, full length, GST fusion (mouse, UniProt A0ABA7IW68)
Residues (chain): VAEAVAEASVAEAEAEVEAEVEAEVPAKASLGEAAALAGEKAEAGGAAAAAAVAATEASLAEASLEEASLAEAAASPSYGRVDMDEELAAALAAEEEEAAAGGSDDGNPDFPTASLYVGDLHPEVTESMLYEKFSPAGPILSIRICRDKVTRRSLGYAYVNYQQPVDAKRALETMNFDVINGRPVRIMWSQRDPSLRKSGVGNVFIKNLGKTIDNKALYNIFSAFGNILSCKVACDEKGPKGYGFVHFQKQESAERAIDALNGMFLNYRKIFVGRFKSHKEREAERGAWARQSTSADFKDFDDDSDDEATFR
Oligonucleotide | 7-mer Z-score
UUCGCCG | -0.398
CGUCUGA | -0.369
UUGGUCU | -0.421
CAUAAAA | 5.37
UGGAAUU | -0.155
GGGGUCA | 0.441
AUCCCCG | -0.441
AAAAUAA | 4.28

Other studies, line by line
Compound | target | test | conditions | scale | endpoint | value
COc1cc2c(cc1OC)-c1[nH]nc(Nc3cccc(F)c3)c1C2 | MAP kinase-interacting serine/threonine-protein kinase 1 (MKNK1, Homo sapiens, UniProt Q9BUB5) | enzyme activity, inhibitor | 0.5 µM | relative to: control | remaining activity | 89.8%
